# Experimental data gathered from unrelated publications.
# Protocols differ between the studies behind these lines. ± marks the error that the study gave.
Compound,test,test system,conditions,scale,endpoint,result
N=C(N)NCCC[C@@H]1NC(=O)[C@H](CCCCNC(=O)CNC(=O)CNC(=O)CNC(=O)CC[C@H](NC(=O)CNC(=O)CNC(=O)CNC(=O)CN2CCN(CC(=O)O)CCN(CC(=O)O)CCN(CC(=O)O)CC2)C(=O)NCC(=O)NCC(=O)NCC(=O)NCCCC[C@@H]2NC(=O)[C@@H](Cc3ccccc3)NC(=O)[C@H](CC(=O)O)NC(=O)CNC(=O)[C@H](CCCNC(=N)N)NC2=O)NC(=O)[C@@H](Cc2ccccc2)NC(=O)[C@H](CC(=O)O)NC(=O)CNC1=O [indium-111 labelled],,"female athymic nu/nu mice, blood","intravenous, 4 h",,tissue uptake,0.09 %ID/g
CC(C)C[C@@H](NC(=O)[C@@H](CC(C)C)NC(=O)[C@@H](CC(=O)O)NC(=O)[C@@H](CC(C)C)NC(=O)[C@@H](CC(C)C)NC(=O)[C@@H](CC(C)C)NC(=O)[C@H](NC(=O)[C@@H](CC(=O)O)NC(=O)[C@H](NC(=O)[C@H]1CCCN1C(=O)[C@@H](Cc1ccccc1)NC(=O)[C@@H](CC(C)C)NC(=O)[C@@H](CC(C)C)NC(=O)[C@@H](CC(=O)O)NC(=O)[C@@H](CC(C)C)NC(=O)[C@@H](Cc1ccc(O)cc1)NC(=O)[C@@H](C)NC(=O)[C@@H](CCCNC(=N)N)NC(=O)[C@@H](Cc1c[nH]c2ccccc12)NC(=O)[C@H]1CCCN1C(=O)[C@@H](CC(N)=O)NC(=O)[C@@H](CCC(N)=O)NC(=O)[C@@H](CC(=O)O)NC(=O)[C@@H](CC(=O)O)NC(=O)[C@@H](CSC1CC(=O)N(CCNC(=O)CN2CCN(CC(=O)O)CCN(CC(=O)O)CC2)C1=O)NC(=O)[C@@H](C)N)[C@H](C)O)[C@H](C)O)C(=O)N[C@H](Cc1c[nH]c2ccccc12)C(=O)O (some centres unmarked) [fluorine-18 labelled],,"male nude mice, PC-3 xenograft","intravenous, 4 h",relative to: tumour over bone,tumour-to-bone ratio,3.2 ± 0.7
Cc1cc(-c2ccc(NC(=O)[C@H](CCCCNC(=O)CCOCCOCCC(=O)N[C@H](Cc3ccccc3)C(=O)N[C@H]3CSSC[C@@H](C(=O)N[C@H](C(=O)O)[C@@H](C)O)NC(=O)[C@H]([C@@H](C)O)NC(=O)[C@H](CCCCN)NC(=O)[C@@H](Cc4c[nH]c5ccccc45)NC(=O)[C@H](Cc4ccc(O)cc4)NC3=O)NC(=O)CN3CCN(CC(=O)O)CCN(CC(=O)O)CCN(CC(=O)O)CC3)c(C)c2)ccc1N=Nc1ccc2c(S(=O)(=O)O)cc(S(=O)(=O)O)c(N)c2c1O [lutetium-177 labelled],measured: grade 3/4 haematologic toxicity,patients with metastatic neuroendocrine tumours,dose not given,,patients with toxicity,25%
C=C1CC[C@H](OCCCNC(=O)CCOCCOCCOCCOCCOCCOCCOCCOCCOCCOCCOCCOCCOCCOCCOCCOCCOCCOCCOCCOCCOCCOCCOCCOCCOCCOCCOCCOCCOCCOCCOCCOCCOCCOCCOCCOCCNC(=O)CCN2C(=O)CC(SC[C@H](NC(=O)[C@H](Cc3ccccc3)NC(=O)[C@H](CC(N)=O)NC(=O)[C@H](Cc3c[nH]cn3)NC(=O)[C@@H](NC(=O)[C@H](CC(=O)O)NC(=O)[C@H](CCC(N)=O)NC(=O)[C@H](CC(C)C)NC(=O)[C@H](CCCCN)NC(=O)[C@H](CCCCN)NC(=O)[C@H](CCCNC(=N)N)NC(=O)[C@H](CC(C)C)NC(=O)[C@H](Cc3c[nH]c4ccccc34)NC(=O)[C@H](CCC(=O)O)NC(=O)[C@@H](NC(=O)[C@H](CCCNC(=N)N)NC(=O)[C@H](CCC(=O)O)NC(=O)[C@H](CCSC)NC(=O)[C@H](CO)NC(=O)[C@H](CC(N)=O)NC(=O)[C@H](CC(C)C)NC(=O)[C@H](Cc3c[nH]cn3)NC(=O)[C@H](CCCCN)NC(=O)CNC(=O)[C@H](CC(C)C)NC(=O)[C@H](CC(N)=O)NC(=O)[C@H](Cc3c[nH]cn3)NC(=O)[C@H](CCSC)NC(=O)[C@H](CC(C)C)NC(=O)[C@H](CCC(N)=O)NC(=O)[C@@H](NC(=O)[C@H](CCC(=O)O)NC(=O)[C@H](CO)NC(=O)[C@@H](NC(=O)[C@@H](N)CO)C(C)C)[C@@H](C)CC)C(C)C)C(C)C)C(N)=O)C2=O)C/C1=C/C=C1\CCC[C@]2(C)[C@@H]([C@H](C)CCCC(C)(C)O)CC[C@@H]12 (some centres unmarked),,cynomolgus monkey,"sc, 7 µg/kg every other day, 21 days",relative to: 0.7 µg/kg dose,dose-normalised AUC,0.28
CCCC[C@H](NC(=O)CCCCCCCNC(=O)CN1CCN(CC(=O)O)CCN(CC(=O)O)CC1)C(=O)N[C@H]1CC(=O)NCCCC[C@@H](C(N)=O)NC(=O)[C@H](Cc2c[nH]c3ccccc23)NC(=O)[C@H](CCCNC(=N)N)NC(=O)[C@@H](Cc2ccccc2)NC(=O)[C@H](Cc2c[nH]cn2)NC1=O [copper-64 labelled],,"C57 mice, liver","intravenous, 0.37 MBq, 2 h",,tissue uptake,2.19 ± 0.14 %ID/g
CC(C)C[C@H](NC(=O)[C@H](Cc1ccc(O)cc1)NC(=O)[C@@H](CCCNC(=N)N)NC(=O)[C@@H](CO)NC(=O)[C@H](Cc1ccccc1)NC(=O)[C@H](CC1CCCCC1)NC(=O)[C@H](CC(=O)O)NC(=O)CN1CCN(CC(=O)O)CCN(CC(=O)O)CCN(CC(=O)O)CC1)C(=O)N[C@@H](Cc1c[nH]c2ccccc12)C(=O)N[C@@H](CO)C(=O)O [copper-64 labelled],radio-HPLC,"human, plasma",iv,,time intact in plasma,≤ 30 min
COc1ccc2cc([C@H](C)C(=O)N[C@H](Cc3ccccc3)C(=O)N[C@H](Cc3ccccc3)C(=O)N[C@H](CCCCN)C(=O)N[C@H](Cc3ccc(O)cc3)C(=O)O)ccc2c1,,hydrogel 0.8 wt% into PBS,"24 h, pH 7.4, 37 °C",,cumulative release,19.8%
N=C(N)NCCC[C@@H]1NC(=O)[C@H](CCCCNC(=O)CNC(=O)CNC(=O)CNC(=O)CC[C@H](NC(=O)CNC(=O)CNC(=O)CNC(=O)CC[C@H](NC(=O)CN2CCN(CC(=O)O)CCN(CC(=O)O)CCN(CC(=O)O)CC2)C(=O)NCC(=O)NCC(=O)NCC(=O)N[C@@H](CCC(=O)NCC(=O)NCC(=O)NCC(=O)NCCCC[C@@H]2NC(=O)[C@@H](Cc3ccccc3)NC(=O)[C@H](CC(=O)O)NC(=O)CNC(=O)[C@H](CCCNC(=N)N)NC2=O)C(=O)NCC(=O)NCC(=O)NCC(=O)NCCCC[C@@H]2NC(=O)[C@@H](Cc3ccccc3)NC(=O)[C@H](CC(=O)O)NC(=O)CNC(=O)[C@H](CCCNC(=N)N)NC2=O)C(=O)NCC(=O)NCC(=O)NCC(=O)NCCCC[C@@H]2NC(=O)[C@@H](Cc3ccccc3)NC(=O)[C@H](CC(=O)O)NC(=O)CNC(=O)[C@H](CCCNC(=N)N)NC2=O)NC(=O)[C@@H](Cc2ccccc2)NC(=O)[C@H](CC(=O)O)NC(=O)CNC1=O [indium-111 labelled],,"female athymic nu/nu mice, kidney","intravenous, 0.5 h",,tissue uptake,8.35 ± 0.52 %ID/g

# Excerpt of the above:
Compound,test,test system,conditions,scale,endpoint,result
N=C(N)NCCC[C@@H]1NC(=O)[C@H](CCCCNC(=O)CNC(=O)CNC(=O)CNC(=O)CC[C@H](NC(=O)CNC(=O)CNC(=O)CNC(=O)CN2CCN(CC(=O)O)CCN(CC(=O)O)CCN(CC(=O)O)CC2)C(=O)NCC(=O)NCC(=O)NCC(=O)NCCCC[C@@H]2NC(=O)[C@@H](Cc3ccccc3)NC(=O)[C@H](CC(=O)O)NC(=O)CNC(=O)[C@H](CCCNC(=N)N)NC2=O)NC(=O)[C@@H](Cc2ccccc2)NC(=O)[C@H](CC(=O)O)NC(=O)CNC1=O [indium-111 labelled],,"female athymic nu/nu mice, blood","intravenous, 4 h",,tissue uptake,0.09 %ID/g
